Experimental data pooled from the literature.
Numbers after ± are the reported error.
Chain of UniProt P63092 (whole entry, looked up): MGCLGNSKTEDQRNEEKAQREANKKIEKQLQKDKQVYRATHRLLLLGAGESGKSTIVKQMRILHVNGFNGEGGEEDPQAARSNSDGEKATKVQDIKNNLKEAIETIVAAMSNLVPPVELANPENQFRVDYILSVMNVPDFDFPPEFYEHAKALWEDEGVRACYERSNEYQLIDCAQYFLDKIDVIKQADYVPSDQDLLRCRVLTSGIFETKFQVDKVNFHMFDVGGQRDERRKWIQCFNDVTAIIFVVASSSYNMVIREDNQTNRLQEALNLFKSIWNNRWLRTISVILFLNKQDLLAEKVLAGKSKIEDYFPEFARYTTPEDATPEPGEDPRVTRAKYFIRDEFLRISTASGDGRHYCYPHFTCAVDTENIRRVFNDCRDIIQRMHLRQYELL
Chain of UniProt Q9BYF1 (whole entry, looked up): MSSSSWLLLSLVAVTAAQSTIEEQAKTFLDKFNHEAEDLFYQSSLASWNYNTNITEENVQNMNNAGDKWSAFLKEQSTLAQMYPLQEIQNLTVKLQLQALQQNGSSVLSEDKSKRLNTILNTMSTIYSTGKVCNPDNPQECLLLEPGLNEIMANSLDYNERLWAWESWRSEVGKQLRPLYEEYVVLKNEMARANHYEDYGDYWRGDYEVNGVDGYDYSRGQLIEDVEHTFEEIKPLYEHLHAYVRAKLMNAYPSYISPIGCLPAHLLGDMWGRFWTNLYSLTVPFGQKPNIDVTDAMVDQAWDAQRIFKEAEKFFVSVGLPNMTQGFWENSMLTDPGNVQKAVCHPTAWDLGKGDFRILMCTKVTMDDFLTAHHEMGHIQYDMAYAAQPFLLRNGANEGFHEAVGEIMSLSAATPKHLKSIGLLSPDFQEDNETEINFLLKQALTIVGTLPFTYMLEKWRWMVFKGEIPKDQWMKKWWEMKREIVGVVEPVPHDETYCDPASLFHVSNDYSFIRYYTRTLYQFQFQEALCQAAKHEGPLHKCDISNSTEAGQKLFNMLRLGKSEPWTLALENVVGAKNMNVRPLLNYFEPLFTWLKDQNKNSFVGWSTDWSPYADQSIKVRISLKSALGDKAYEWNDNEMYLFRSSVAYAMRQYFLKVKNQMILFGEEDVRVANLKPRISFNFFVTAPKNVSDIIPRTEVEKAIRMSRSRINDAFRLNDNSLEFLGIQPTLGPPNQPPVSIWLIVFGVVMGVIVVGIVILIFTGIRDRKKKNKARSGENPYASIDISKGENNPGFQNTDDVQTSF
Chain of UniProt P83410 (whole entry, looked up): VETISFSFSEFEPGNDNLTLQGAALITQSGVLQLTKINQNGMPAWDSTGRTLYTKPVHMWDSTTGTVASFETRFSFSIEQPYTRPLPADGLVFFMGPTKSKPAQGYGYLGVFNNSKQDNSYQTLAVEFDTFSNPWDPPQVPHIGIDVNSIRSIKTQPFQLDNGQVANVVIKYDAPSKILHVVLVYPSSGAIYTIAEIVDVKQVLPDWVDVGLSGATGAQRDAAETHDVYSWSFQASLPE
Chain of UniProt Q14145 (whole entry, looked up): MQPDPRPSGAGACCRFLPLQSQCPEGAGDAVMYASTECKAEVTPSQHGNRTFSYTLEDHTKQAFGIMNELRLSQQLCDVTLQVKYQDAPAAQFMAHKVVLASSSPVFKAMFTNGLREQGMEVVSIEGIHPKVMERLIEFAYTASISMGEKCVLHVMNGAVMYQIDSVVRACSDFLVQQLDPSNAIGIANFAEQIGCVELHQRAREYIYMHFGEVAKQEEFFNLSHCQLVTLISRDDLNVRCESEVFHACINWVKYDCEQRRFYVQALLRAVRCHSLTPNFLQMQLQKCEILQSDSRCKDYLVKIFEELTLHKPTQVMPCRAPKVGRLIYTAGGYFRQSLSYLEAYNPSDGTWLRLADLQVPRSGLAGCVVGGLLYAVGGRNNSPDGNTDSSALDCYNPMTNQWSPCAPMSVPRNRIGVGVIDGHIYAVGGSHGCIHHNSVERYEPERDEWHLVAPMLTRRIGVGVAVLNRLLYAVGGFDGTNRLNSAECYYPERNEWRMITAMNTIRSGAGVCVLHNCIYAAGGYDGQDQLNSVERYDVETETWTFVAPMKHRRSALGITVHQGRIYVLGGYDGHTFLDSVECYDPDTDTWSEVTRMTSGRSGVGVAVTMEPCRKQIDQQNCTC
Chain of UniProt P14779 (whole entry, looked up): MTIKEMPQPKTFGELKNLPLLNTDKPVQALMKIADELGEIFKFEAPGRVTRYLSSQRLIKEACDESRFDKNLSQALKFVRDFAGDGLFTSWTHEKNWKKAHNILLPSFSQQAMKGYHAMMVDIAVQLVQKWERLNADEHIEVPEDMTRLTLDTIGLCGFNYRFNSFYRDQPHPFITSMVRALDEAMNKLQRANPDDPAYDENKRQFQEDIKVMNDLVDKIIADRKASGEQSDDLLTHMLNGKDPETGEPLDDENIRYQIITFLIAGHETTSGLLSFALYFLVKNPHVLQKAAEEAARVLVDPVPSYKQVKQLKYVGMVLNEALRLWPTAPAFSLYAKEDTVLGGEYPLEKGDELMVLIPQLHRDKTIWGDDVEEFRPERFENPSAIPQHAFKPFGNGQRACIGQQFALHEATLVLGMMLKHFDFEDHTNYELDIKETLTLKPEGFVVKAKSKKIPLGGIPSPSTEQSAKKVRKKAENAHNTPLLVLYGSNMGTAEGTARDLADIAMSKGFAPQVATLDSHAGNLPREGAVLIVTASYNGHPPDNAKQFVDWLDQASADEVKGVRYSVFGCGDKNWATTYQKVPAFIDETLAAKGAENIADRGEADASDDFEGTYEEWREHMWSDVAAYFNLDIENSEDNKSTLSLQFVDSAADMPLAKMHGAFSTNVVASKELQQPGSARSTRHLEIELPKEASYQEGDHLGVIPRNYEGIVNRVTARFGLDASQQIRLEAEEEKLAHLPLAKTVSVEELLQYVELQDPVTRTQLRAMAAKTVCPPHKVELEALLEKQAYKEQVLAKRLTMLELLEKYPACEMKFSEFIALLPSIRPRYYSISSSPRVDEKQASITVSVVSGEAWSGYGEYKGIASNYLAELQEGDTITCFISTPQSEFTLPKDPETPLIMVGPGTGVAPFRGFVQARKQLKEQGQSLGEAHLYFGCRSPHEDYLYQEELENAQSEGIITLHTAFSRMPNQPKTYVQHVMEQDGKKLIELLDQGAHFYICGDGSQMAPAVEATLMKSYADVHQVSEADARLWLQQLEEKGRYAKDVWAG
Chain of UniProt D5ANZ3 (whole entry, unmodified, looked up): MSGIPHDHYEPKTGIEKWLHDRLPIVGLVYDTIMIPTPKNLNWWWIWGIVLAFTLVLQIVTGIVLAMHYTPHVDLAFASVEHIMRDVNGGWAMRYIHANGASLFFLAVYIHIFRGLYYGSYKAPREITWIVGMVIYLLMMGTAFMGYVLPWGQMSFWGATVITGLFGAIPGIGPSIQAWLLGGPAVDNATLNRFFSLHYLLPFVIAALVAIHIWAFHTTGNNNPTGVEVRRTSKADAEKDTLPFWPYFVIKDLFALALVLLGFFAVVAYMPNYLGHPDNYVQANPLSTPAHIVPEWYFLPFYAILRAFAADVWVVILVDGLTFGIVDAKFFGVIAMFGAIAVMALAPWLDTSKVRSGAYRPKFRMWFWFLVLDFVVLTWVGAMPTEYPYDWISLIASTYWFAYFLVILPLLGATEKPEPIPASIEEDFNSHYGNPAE
Chain of UniProt P11509 (whole entry, looked up): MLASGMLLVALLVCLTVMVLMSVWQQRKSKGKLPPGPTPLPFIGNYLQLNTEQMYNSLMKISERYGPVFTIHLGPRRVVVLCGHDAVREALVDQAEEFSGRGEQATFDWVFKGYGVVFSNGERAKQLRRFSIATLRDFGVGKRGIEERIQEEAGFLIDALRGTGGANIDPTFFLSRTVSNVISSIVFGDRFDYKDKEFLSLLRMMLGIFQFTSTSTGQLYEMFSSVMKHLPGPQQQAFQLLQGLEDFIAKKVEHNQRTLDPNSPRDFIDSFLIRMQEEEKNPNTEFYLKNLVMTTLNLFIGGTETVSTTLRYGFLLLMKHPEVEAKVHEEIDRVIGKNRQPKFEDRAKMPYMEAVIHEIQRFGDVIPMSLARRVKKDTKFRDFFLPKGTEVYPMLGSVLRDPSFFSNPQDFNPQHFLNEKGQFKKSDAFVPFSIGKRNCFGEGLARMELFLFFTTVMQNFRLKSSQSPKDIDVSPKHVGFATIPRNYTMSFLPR
Chain of UniProt O88703 (whole entry, looked up): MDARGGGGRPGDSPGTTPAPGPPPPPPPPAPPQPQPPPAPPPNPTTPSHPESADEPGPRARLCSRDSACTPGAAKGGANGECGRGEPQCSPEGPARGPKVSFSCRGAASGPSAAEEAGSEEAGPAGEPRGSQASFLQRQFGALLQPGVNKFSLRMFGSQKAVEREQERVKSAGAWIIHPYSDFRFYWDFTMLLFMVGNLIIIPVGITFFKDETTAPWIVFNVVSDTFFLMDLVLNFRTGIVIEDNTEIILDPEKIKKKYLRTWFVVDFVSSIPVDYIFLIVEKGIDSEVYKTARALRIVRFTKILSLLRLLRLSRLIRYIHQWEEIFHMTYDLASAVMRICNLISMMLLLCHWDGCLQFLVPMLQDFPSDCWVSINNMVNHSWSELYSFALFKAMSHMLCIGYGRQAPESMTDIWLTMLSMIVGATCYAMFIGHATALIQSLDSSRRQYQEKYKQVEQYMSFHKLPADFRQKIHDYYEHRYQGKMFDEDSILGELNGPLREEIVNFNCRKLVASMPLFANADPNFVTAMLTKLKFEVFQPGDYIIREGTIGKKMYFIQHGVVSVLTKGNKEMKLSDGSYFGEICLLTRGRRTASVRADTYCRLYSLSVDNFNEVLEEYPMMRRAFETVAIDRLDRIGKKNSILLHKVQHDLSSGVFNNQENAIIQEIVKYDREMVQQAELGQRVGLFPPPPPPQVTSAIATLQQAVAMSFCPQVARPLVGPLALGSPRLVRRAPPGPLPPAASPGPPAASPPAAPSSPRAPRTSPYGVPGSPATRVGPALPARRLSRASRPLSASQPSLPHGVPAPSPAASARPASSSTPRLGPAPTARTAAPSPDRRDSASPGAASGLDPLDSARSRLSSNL

O=C1c2cccc(O)c2C(=O)c2c(O)cc(CO)cc21 — Kd (ACE2 (Homo sapiens, UniProt Q9BYF1); binding, SPR): 6.02 µM
cGMP — Kd (Potassium/sodium hyperpolarization-activated cyclic nucleotide-gated channel 2, C-terminal region (Hcn2, Mus musculus, UniProt O88703); binding, isothermal titration calorimetry; C-linker/CNBD tetramer, site 2): 6.13 µM
[Zn+2] — Kd (Cytochrome b (petB, Rhodobacter capsulatus, UniProt D5ANZ3, E295V); high-affinity site E295V): 0.55 ± 0.09 µM
CSCC[C@H](NC(C)=O)C(=O)N[C@@H](C)C(=O)N[C@@H](C)C(=O)N[C@H](C(=O)N[C@@H](C)C(=O)NCC(=O)N[C@@H](CC(C)C)C(=O)N[C@@H](Cc1ccc(O)cc1)C(=O)NCC(=O)N[C@@H](CC(C)C)C(=O)NCC(=O)N[C@@H](CCCCN)C(=O)N[C@@H](CCCCN)C(=O)N[C@@H](CCCNC(=N)N)C(=O)N[C@@H](CCC(N)=O)C(=O)N[C@@H](Cc1c[nH]cn1)C(=O)N[C@@H](CCCNC(=N)N)C(=O)N[C@@H](CCCCN)C(=O)N[C@@H](CCCCN)C(=O)N[C@@H](CCC(N)=O)C(N)=O)C(C)C — Kd (Kcnma1 (Mus musculus, UniProt Q08460); ion current, blocker, inside-out patch clamp; 120 mV): 0.22 µM
Nc1ncnc2c1ncn2[C@@H]1O[C@H](COP(=O)(O)OP(=O)(O)O)[C@@H](O)[C@H]1O — Kd (matB (Rhodopseudomonas palustris, UniProt Q6ND88, C106A/K488A/Q457C/R286C); binding, fluorescence titration; pH 7.0, 20 °C): 428 ± 50 µM
Nc1nc2c(ncn2C2OC3COP(=O)(O)OC4C(COP(=O)(O)OC3C2O)OC(n2cnc3c(=O)[nH]c(N)nc32)C4OC(=O)NCCCCCCNC(=O)c2ccc(-c3c4ccc(=O)cc-4oc4cc(O)ccc34)c(C(=O)O)c2)c(=O)[nH]1 (stereo not drawn) — Kd (Transcriptional regulator BldD, C-terminal domain (Streptomyces venezuelae, UniProt F2RCL8, D116A); fluorescence polarization; pH 7.5, 25 °C, motif 2 only): 1.6 ± 0.5 µM
CN[C@@](C)(C[18F])C(=O)O — tumour uptake (SCID mice (A549 xenograft); 120 min after injection): 5.6 ± 1.3 %ID/g
CC(=O)N[C@@H](CC(C)C)C(=O)N1CCC[C@H]1C(=O)N[C@H]1CCCCNC(=O)c2cc3cc(c2)NC(=O)CSC[C@H](NC(=O)[C@H](CO)NC(=O)[C@H](C(C)C)NC(=O)[C@H](Cc2c[nH]c4ccccc24)NC(=O)[C@H](CO)NC(=O)[C@H]([C@@H](C)O)NC(=O)[C@H](CC(C)C)NC(=O)CNC(=O)[C@H]([C@@H](C)O)NC1=O)C(=O)N[C@@H](Cc1c[nH]cn1)C(=O)N[C@@H](Cc1ccccc1)C(=O)N[C@@H](CC(C)C)C(=O)N[C@@H](CCCNC(=N)N)C(=O)N[C@@H](CO)C(=O)N[C@@H](CC(C)C)C(=O)N[C@H](C(=O)NCC(=O)NCC(=O)N[C@@H](CO)C(=O)NCC(N)=O)CSCC(=O)N3 — Kd (TEAD4 (Homo sapiens, UniProt Q15561); binding, FP): 0.0639 µM
CCCCCCCCCCCCCCCC(=O)N[C@@H](CCSC)C(=O)O — Kd (Bifunctional cytochrome P450/NADPH--P450 reductase, heme domain (cyp102A1, Bacillus megaterium, UniProt P14779); substrate binding, substrate, UV-vis spectral titration; pH 7.4, room temperature, wild-type heme domain): < 0.03 µM
C[C@@H]1O[C@@H](O[C@H]2[C@H](O[C@H]3[C@H](O)[C@@H](O)C(O)O[C@@H]3CO)O[C@H](CO)[C@H](O)[C@@H]2O)[C@@H](O)[C@H](O)[C@@H]1O (stereo partly drawn) — Kd (Lectin (Erythrina crista-galli, UniProt P83410); BLI competition; solution Kd, with: LacNAc-biotin biosensor): 220 µM
CC[N+](CC)(CC)CC(=O)Nc1c(C)cccc1C — Kd (sodium channel (rat brain), batrachotoxin-modified; open channel block, blocker, planar lipid bilayer, single channel; low-Kd period, +60 mV): 660 µM
C/C=C/C[C@@H](C)C(=O)[C@H]1C(=O)N[C@@H](C(C)C)C(=O)N(C)CC(=O)N(C)[C@@H](CC(C)C)C(=O)N[C@@H](C(C)C)C(=O)N(C)[C@@H](CC(C)C)C(=O)N[C@@H](C)C(=O)N[C@H](C)C(=O)N(C)[C@@H](CC(C)C)C(=O)N(C)[C@@H](CC(C)C)C(=O)N(C)[C@@H](C(C)C)C(=O)N1C — Kd (Rgg3 Streptococcus pyogenes; competition fluorescence polarization; with: FITC-SHP2-C8 10 nM): 0.55 µM
c1ccc(-c2ccccc2)cc1 — Kd (Cytochrome P450 2A6 (CYP2A6, Homo sapiens, UniProt P11509); binding, absorbance; pH 7.4): 2.7 µM
OC[C@H]1OC(O)[C@H](O)[C@@H](O)[C@@H]1O (stereo partly drawn) — Kd (hexokinase, Saccharomyces cerevisiae; differential scanning fluorimetry; pH 7.0, with: 10 mM MgCl2): 1120 ± 50 µM
C[C@H](CNc1ccc([N+](=O)[O-])c2nonc12)[C@H]1CC[C@H]2[C@@H]3CC=C4C[C@@H](O)CC[C@]4(C)[C@H]3CC[C@]12C — Kd (Sterol carrier protein 2 (Aedes aegypti, UniProt Q86PR3); binding; no competitor): 0.99 µM
CCCCn1ccnc1 — Kd (Nitrophorin-1 (Rhodnius prolixus, UniProt Q26239, H82C); binding, UV/Vis titration; pH 7.4, 25 °C, H60C mutant complex): 7 ± 1e-06 µM
CCCCCCCCCCO — Kd (potassium channel; steady-state block; Doryteuthis pealeii; internal application, with: membrane potential +100 mV): 938 µM
CC(=O)N[C@@H](CO)C(=O)N[C@@H](CC(C)C)C(=O)N[C@@H](CCC(=O)O)C(=O)N[C@@H](CCC(=O)O)C(=O)N1CCC[C@H]1C(=O)N[C@@H](Cc1c[nH]cn1)C(=O)N[C@@H](CO)C(=O)N1CCC[C@H]1C(=O)N[C@@H](CCC(=O)O)C(=O)N[C@H](C(=O)NCC(=O)N[C@@H](CCC(=O)O)C(=O)N[C@@H](CCCCN)C(=O)N[C@H](C(=O)N[C@H](C(=O)N[C@@H](C)C(=O)NCC(=O)N[C@@H](CCC(=O)O)C(=O)N[C@H](C(=O)N[C@@H](CC(N)=O)C(N)=O)C(C)C)C(C)C)C(C)C)[C@@H](C)O — Kd (Kelch-like ECH-associated protein 1, Kelch domain (KEAP1, Homo sapiens, UniProt Q14145); isothermal titration calorimetry; Kelch domain; pH 7, 25 °C): 0.25 ± 0.02 µM
Nc1ncnc2c1ncn2[C@@H]1O[C@H](COP(=O)(O)OS(=O)(=O)O)[C@@H](OP(=O)(O)O)[C@H]1O — Kd (SULT2A1 (Homo sapiens, UniProt Q06520); binding, tryptophan fluorescence; pH 7.0, 37 °C, ligand-free enzyme): 518 ± 91 µM
O=c1ccn([C@H]2C[C@H](O)[C@@H](CO)O2)c(=O)[nH]1 — Kd (thyX (Thermotoga maritima, UniProt Q9WYT0)): 78 ± 5 µM
C=CC1=C(C)c2cc3[nH]c(cc4nc(cc5[nH]c(cc1n2)c(C)c5C=C)C(C)=C4CCC(=O)O)c(CCC(=O)O)c3C.[Fe+3] — Kd (Heme-binding lipoprotein HupD (Listeria monocytogenes, UniProt Q8Y4K7); binding, Trp fluorescence quenching; His tag removed): 0.026 ± 0.005 µM
C[n+]1cn([C@@H]2O[C@H](COP(=O)(O)OP(=O)([O-])OP(=O)(O)OC[C@H]3O[C@@H](n4cnc5c(=O)[nH]c(N)nc54)[C@H](O)[C@@H]3O)[C@@H](O)[C@H]2O)c2nc(N)[nH]c(=O)c21 — Kd (m7GpppX diphosphatase (DCS1, Saccharomyces cerevisiae, UniProt Q06151, H268N); NMR titration; closed site, H268N): 0.068 µM
CCCCCCCC[N+](CCC)(CCC)CCC — Kd (potassium channel; steady-state block; Doryteuthis pealeii; internal application, with: membrane potential +100 mV): 28.3 µM
CC(C)C[C@H](NC(=O)[C@H](C)NC(=O)[C@H](CCCNC(=N)N)NC(=O)[C@H](CC(C)C)NC(=O)[C@H](Cc1c[nH]c2ccccc12)NC(=O)[C@@H](N)CCCNC(=N)N)C(=O)N[C@@H](CCCNC(=N)N)C(=O)N[C@@H](Cc1ccc(O)cc1)C(=O)N1CCC[C@H]1C(N)=O — Kd (GNAS, GDP-bound (Homo sapiens, UniProt P63092); microscale thermophoresis): no binding
